Experimental data from different studies.
Protocols differ between the studies behind these lines.

Compound = CCc1nc(N)nc(N)c1C#CC(C)c1cc(-c2ccnc(OC)c2)ccc1OC (racemic); medium = mouse liver microsomes; tested at = 5 µg/mL; intrinsic clearance = 69 µL/min/mg
Compound = CCC(=O)N1CCC=C(c2cc3c(Nc4cc5ncsc5cc4F)ncnc3s2)C1; medium = human liver microsomes; tested at = 1 µM; intrinsic clearance = < 12 mL/min/g protein
Compound = CC(=O)Nc1cc(Nc2cc(NC3CC3)n3ncc(C#N)c3n2)ccc1N1CCOCC1; medium = male CD-1 mouse hepatocytes; tested at = 1 µM; added = 1-aminobenzotriazole 1 mM; intrinsic clearance = < 32 mL/min/kg
Compound = CC1Cc2ccccc2N1C(=O)CN1CCN(Cc2ccccc2)CC1 (stereo not shown); medium = mouse liver microsomes; tested at = 0.5 µM; intrinsic clearance = 13.8 mL/min/g
Compound = Cc1ccc(NCC(=O)Nc2ccc(F)c(Cl)c2)cc1S(=O)(=O)N1CCOCC1; medium = mouse liver microsomes; intrinsic clearance = 50 mL/min/g
Compound = Cc1nn(-c2ccccc2)nc1CNS(=O)(=O)c1cccs1; medium = pooled human liver microsomes; intrinsic clearance = 9.1 mL/min/g
Compound = CC(C)(C)NCC(SS(=O)(=O)O)c1ccccc1 (stereo not shown); medium = female Swiss Webster mouse hepatocytes; intrinsic clearance = 32 µL/min/10⁶ cells
Compound = O=C(NC1CC=C(c2cc3c(Nc4cc5ncsc5cc4F)ncnc3s2)CC1)NC1CCCC1 (racemic); medium = human liver microsomes; tested at = 1 µM; intrinsic clearance = < 12 mL/min/g protein
Compound = O=S(=O)(NCc1csc(-c2ccccc2)n1)c1ccc2ccccc2c1; medium = pooled human liver microsomes; intrinsic clearance = 17 mL/min/g
Compound = CCCNC(=O)NC1CC=C(c2cc3c(Nc4cc5ncsc5cc4F)ncnc3s2)CC1 (racemic); medium = human liver microsomes; tested at = 1 µM; intrinsic clearance = < 12 mL/min/g protein
Compound = CCc1nc(N)nc(N)c1C#C[C@H](C)c1cc(-c2ccncc2)ccc1OC; medium = mouse liver microsomes; tested at = 5 µg/mL; intrinsic clearance = ~10 µL/min/mg
Compound = CC(=O)N1CCC=C(c2cc3c(Nc4cc5ncsc5cc4F)ncnc3s2)C1; medium = human liver microsomes; tested at = 1 µM; intrinsic clearance = < 12 mL/min/g protein
Compound = NS(=O)(=O)c1ccc(NC(=O)NN[C@@H]2O[C@H](CO)[C@@H](O)[C@H](O)[C@@H]2O)cc1; medium = mouse liver microsomes; tested at = 1 µM; intrinsic clearance = 4.43 mL/min/kg
